Results collected from several papers.
Protocols differ between the studies behind these lines. Numbers after ± are the reported error.
Proteasome subunit alpha type-2/Proteasome subunit alpha type-6 20S proteasome: Proteasome subunit alpha type-2/Proteasome subunit alpha type-6, 20S proteasome (Homo sapiens, UniProt P25787+P60900)
PPO3: PPO3 (Agaricus bisporus, UniProt C7FF04)
CES3: Carboxylesterase 3 (CES3, Homo sapiens, UniProt Q6UWW8)
T1: dsDNA; GCGCCAATTGGCGC
T2: dsDNA, hairpin; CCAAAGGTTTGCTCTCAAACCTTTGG
T3: DNA G4 bcl-2 G-quadruplex (Homo sapiens); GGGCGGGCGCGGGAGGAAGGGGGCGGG

Cc1cc(=O)oc2cc(NC(=O)CCCCCCCC(=O)NO)ccc12 — protons released on binding (HDAC8 (Homo sapiens, UniProt Q9BY41); ITC in four buffers; concentration not given, pH 7.5): 0.31 ± 0.03 protons per ligand
CCc1cc(C)n2nc(-c3ccc(OCC[18F])cc3)c(CC(=O)N(CC)CC)c2n1 — k3 rate constant (Tspo (Rattus norvegicus, UniProt P16257); two-tissue compartment model; rat C6 glioma model, tumor; 60 min dynamic PET): 0.232 ± 0.026 min⁻¹
CC(C)C[C@H](NC(=O)[C@H](CO)NC(=O)[C@H](CC(C)C)NC(=O)[C@@H]1CCCN1C(=O)CNC(=O)[C@H](Cc1ccccc1)NC(=O)[C@@H](N)Cc1ccccc1)C(=O)N[C@@H](CCCNC(=N)N)C(=O)N[C@@H](CO)C(=O)N[C@@H](CCCCN)C(=O)O — hydrolysis product (MMP9 (Homo sapiens, UniProt P14780); substrate, HPLC; 500 µM, 72 h, pH 7.5, 37 °C): 100%
Nc1ncnc2c1ncn2C1OC(COP(=O)(O)OP(=O)(O)OCC2OC(O)C(O)C2O)C(O)C1O (stereo not shown) — EC50 fold increase (TRPM2 (Nematostella vectensis, UniProt A7T1N0, R329A); channel activation, agonist, inside-out patch clamp; R329A, 2.5 µM PIP2, added: 125 µM Ca2+; relative to: wild type): > 1000 fold
FC(F)(F)c1ccc2[nH]c(C(F)(F)F)nc2c1 — binding (DUSP3 (Homo sapiens, UniProt P51452); ligand-observed 19F NMR; concentration not given, added: DUSP3 4 or 8 µM): active
C[n+]1c(C=Cc2ccc(O)c(C=Cc3sc4ccccc4[n+]3C)c2)sc2ccccc21 — binding (T1, dsDNA; fluorescence enhancement): binds weakly
CC(C)n1c(-c2ccc(C(=N)N)s2)nc2cc(-c3ccc4c(c3)nc(-c3ccc(C(=N)N)s3)n4C(C)C)ccc21 — Kd (T2, dsDNA, hairpin; SPR; pH 7.4, Na+ 100 mM): 0.553 µM
O=C(O)Cc1cccc(O)c1 — -TΔS (p-hydroxyphenylacetate 3-hydroxylase, reductase component (C1-hpah, Acinetobacter baumannii, UniProt Q6Q271); ITC; pH 7): 12.9 ± 2.1 kcal/mol
C[C@@]12CC[C@@H]3c4cc(Br)c(O)c(Br)c4CC[C@H]3[C@@H]1CCC2=O — inhibition (AKR1C1 (Homo sapiens, UniProt Q04828); enzyme activity, inhibitor, absorbance; 10 µM, pH 9): 82.5%
O=C(CN1CCOCC1)N(c1ccc(F)cc1)c1ccc(F)cc1 — EC200 (Proteasome subunit alpha type-2/Proteasome subunit alpha type-6 20S proteasome; proteolysis, activator, fluorogenic peptide; purified 20S proteasome; added: Suc-LLVY-AMC, Z-LLE-AMC, Boc-LRR-AMC): > 30 µM
CC(C)C[C@H](NC(=O)[C@H](CCCNC(=N)N)NC(=O)[C@@H](N)CS)C(=O)N[C@@H](CC(N)=O)C(=O)O — remaining activity (PPO3; enzyme activity, inhibitor; 12.5 µM): 88.6%
CC1=N/C(=C\c2cc3cc4c5c(c3oc2=O)CCCN5CCC4)C(=O)N1C — Kd (T3, DNA G4 bcl-2 G-quadruplex (Homo sapiens); fluorescence titration; pH 7.4, K+ 100 mM): 2.59 µM
CCC1(O)CCCN(C(=O)c2cccc(C#N)c2)C1 (stereo not shown) — signal attenuation (DNA dC->dU-editing enzyme APOBEC-3B, C-terminal domain (Homo sapiens, UniProt Q9UH17); binding, 1H CPMG NMR; 20 µM protein): 5.45 ± 4.46%
CCCCCCCC(=O)OC(C#N)c1ccc2cc(OC)ccc2c1 (racemic) — specific activity (CES3; substrate; 50 µM, pH 8, 37 °C, enzyme purity 3%): 3.5 pmol/min/µg
CC[C@H](C)[C@@H]1NC(=O)[C@H](CCSC)NC(=O)CCCC(=O)NCCCC[C@@H](C(N)=O)NC(=O)[C@H]([C@@H](C)O)NC(=O)CNC(=O)[C@H](C)NC(=O)[C@H](C(C)C)NC(=O)[C@H](Cc2ccccc2)NC(=O)[C@H](CCC(=O)O)NC(=O)[C@H](Cc2ccc(O)cc2)NC(=O)[C@H](Cc2c[nH]c3ccccc23)NC(=O)[C@H]([C@@H](C)O)NC1=O — kcat/Km reduction (Chymotrypsinogen A (Bos taurus, UniProt P00766); substrate; concentration not given; relative to: compound over variant): 1 fold
Cc1cc(N2CC[C@](C#N)(C3(C)CC3)C2=O)cc(C(=O)NCc2cc(F)cc(-c3cnn(C)c3)c2)n1 — melting temperature (Proline--tRNA ligase (Plasmodium falciparum, UniProt Q8I5R7); thermal shift; added: ATP 2 mM): 62.6 °C
COc1ccc2[nH]c(-c3cccc(OC)n3)nc2c1 — activity class (Core-binding factor subunit beta, with RUNX1 Runt domain (Homo sapiens, UniProt Q13951); protein binding, inhibitor, FRET; concentration not given, added: Runt domain): inactive
O=C(Cn1c2ccccc2c2ccncc21)N(c1ccc(F)cc1)c1ccc(F)cc1 — EC200 (Proteasome subunit alpha type-2/Proteasome subunit alpha type-6 20S proteasome; proteolysis, activator, fluorogenic peptide; purified 20S proteasome; added: Suc-LLVY-AMC, Z-LLE-AMC, Boc-LRR-AMC): 2 ± 0.9 µM
NS(=O)(=O)c1ccc(-n2nc(C(F)(F)F)cc2-c2ccc(F)cc2F)cc1 — IC80 (Prostaglandin G/H synthase 1 (Canis lupus familiaris, UniProt Q8HZR1); TXB2 formation, inhibitor; clotting dog whole blood; 1 h, 37 °C): 133 µM
CC[C@H](C)[C@H](NC(=O)[C@H](C)NC(=O)[C@H](CCCCN)NC(=O)[C@@H](NC(=O)[C@H](CCC(=O)O)NC(=O)[C@H](CCC(=O)O)NC(=O)[C@H](CCC(=O)O)NC(=O)[C@H](CO)NC(=O)[C@H](CC(C)C)NC(=O)[C@H](CC(=O)O)NC(=O)[C@H](CC(C)C)NC(=O)CNC(=O)[C@H](CCCNC(=N)N)NC(=O)[C@H](CC(C)C)NC(=O)[C@H](CO)NC(=O)CNC(=O)CNC(=O)CNC(=O)CCCC[C@@H]1SC[C@@H]2NC(=O)N[C@@H]21)C(C)C)C(=O)N[C@@H](CC(C)C)C(=O)N[C@@H](CC(=O)O)C(=O)N[C@@H](CCC(=O)O)C(=O)N[C@H](C(=O)N[C@H](C(=O)N[C@@H](CCCCN)C(=O)N[C@@H](CC(=O)O)C(=O)O)C(C)C)[C@@H](C)CC — Kd ratio (Fab B11 antibody (human); binding, biolayer interferometry; relative to: alanine mutant over wild type): 2.5
O=c1c(-c2cnn(-c3ccccc3)c2)c(C(F)(F)F)oc2c(O)c(O)ccc12 — di-ubiquitin synthesis (Cullin-2, with ROC1 (Homo sapiens, UniProt Q13617); inhibitor; up to 150 µM): no inhibition
COC(=O)[C@@H](CS)N1C(=O)c2ccc(N(C)C)cc2C1=O — fluorescence increase (VIM-2 (Escherichia coli, UniProt Q5U7L7); 10 µM, added: 3 equivalents protein, ZnSO4 up to 50 µM): 8.4 fold
C=Cc1c(C)c2cc3nc(c4c5[nH]c(cc6nc(cc1[nH]2)C(C)=C6CC)c(C)c5C(=O)C4)[C@@H](CCC(=O)NCC(=O)N1CCC[C@H]1C(=O)N[C@@H](CC(C)C)C(=O)NCC(=O)N[C@@H](Cc1ccccc1)C(=O)N[C@@H](CCCNC(=N)N)C(=O)N[C@H](C(=O)NCC(=O)N[C@@H](CCCCNC(=O)CCCN(C)c1ccc(/N=N/c2ccc4nc5ccc(N(CC)CC)cc5[n+](-c5ccccc5)c4c2)cc1)C(N)=O)C(C)C)[C@@H]3C — probe activation (Collagenase 3 (MMP13, Homo sapiens, UniProt P45452); substrate; concentration not given, 24 h, 37 °C; relative to: proteinase K): ~85%
COc1ccc(NC(=O)Cc2ccccc2)c(C)n1 — specific activity (CES3; substrate; 50 µM, pH 8, 37 °C, enzyme purity 3%): < 1 pmol/min/µg
Cc1ncsc1-c1ccc([C@@H]2CCCCNC(=O)C[C@@H]3N=C(c4ccc(cc4)OCCCCC(=O)N[C@@H](C(C)(C)C)C(=O)N4C[C@H](O)C[C@H]4C(=O)N2)c2c(sc(C)c2C)-n2c(C)nnc23)cc1 — degradation (Bromodomain-containing protein 4, short isoform (BRD4, Homo sapiens, UniProt O60885); degrader, immunoblotting, refers to: BRD4 short isoform; PC-3; 10 nM, 24 h): 17%
O=c1c2ccccc2n(CC2CC2)c(=O)n1O — maximal single-turnover rate (Flap endonuclease 1 (Homo sapiens, UniProt P39748, R100A); inhibitor; 100 µM, 37 °C, added: double-flap substrate DF1): ~0.002 min⁻¹
[123I]c1ccc2nc(-c3ccc(-n4ccnn4)nc3)cn2c1 — SUVR (Amyloid-beta precursor protein, amyloid-beta (APP, Homo sapiens, UniProt P05067); SPECT; Alzheimer's disease patients, Temporal cortex; 150 to 240 min; relative to: cerebellum): 1.39 ± 0.32
O=C(NC[C@@H](Cc1ccc(F)cc1)N1CCC(O)(C(F)(F)F)CC1)C1(c2ccc(Cl)cc2)CCCC1 — EC50 fold change (TRPA1 (Homo sapiens, UniProt O75762, M912A); calcium influx, agonist; relative to: M912A mutant over wild type): ~25 fold
O=C([O-])CN(CCN(CC(=O)[O-])Cc1cc(CCC(=O)NCCCCCC(=O)NCCCC[C@H](NC(=O)N[C@@H](CCC(=O)O)C(=O)O)C(=O)O)ccc1O)Cc1cc(CCC(=O)O)ccc1[O-].[68Ga+3] — mean tumour-to-background ratio (FOLH1 (Homo sapiens, UniProt Q04609); PET/CT; prostate cancer patients, lymph node metastases; 60 min; relative to: lesion SUVmax over muscle SUVmean): 56.2
CC1CC(C)(C)N(C(=O)CN2C(=O)c3ccccc3C2=O)c2ccc(C(=O)N3CCN(C(=O)CCC4=[N+]5C(=Cc6ccc(-c7ccc[nH]7)n6[B-]5(F)F)C=C4)CC3)cc21 (stereo not shown) — association rate constant (Mucolipin-1 (MCOLN1, Homo sapiens, UniProt Q9GZU1); BRET; HEK293T; 1.3 and 0.67 µM): 4080 ± 2.5e+06 M⁻¹ s⁻¹
CCNC(=O)[C@H](CC(C)C)NC(=O)[C@H](Cc1c[nH]cn1)NC(=O)CNC(=O)[C@@H](NC(=O)[C@H](C)NC(=O)[C@H](Cc1c[nH]c2ccccc12)NC(=O)[C@H](CCC(N)=O)NC(=O)[C@H](N)Cc1ccccc1)C(C)C — calcium release (GRPR (Homo sapiens, UniProt P30550); FLIPR calcium; PC-3; 50 nM): 42 ± 20.4 RFU
CC1=C(/C=C/C=C\C=C\C(C)=C\C=O)C(C)(C)CCC1 — retinal released (Rhodopsin, apoprotein (opsin) (RHO, Bos taurus, UniProt P02699); 2 h, dark, added: 40 mM hydroxylamine): ~2%
CC(C)C[C@H](NC(=O)[C@H](CC(C)C)NC(=O)[C@H](CCC(=O)O)NC(=O)[C@@H](N)CS)C(=O)O — remaining activity (PPO3; enzyme activity, inhibitor; 50 µM): 76.7%
[11CH3]Nc1ccc(-c2nc3ccc(O)cc3o2)cn1 — distribution volume ratio (APP (Homo sapiens, UniProt P05067); binding, PET, reference Logan; control subjects, posterior cingulate cortex; relative to: cerebellum): 1.12 ± 0.1
C=CC(C)(C)OC[C@H]1O[C@H](O[C@@H]2C3=C([C@H](C)COC(C)=O)C[C@H](O)[C@]3(C)/C=C3/[C@@H](COC)CC[C@H]3[C@@H](C)[C@H]2O)[C@H](O)[C@@H](OC(C)=O)[C@@H]1O — threshold concentration (14-3-3 protein gamma, with p65 peptide (YWHAG, Homo sapiens, UniProt P61981); ternary complex formation, 2D fluorescence anisotropy titration): 10 µM
CC(C)CN(CC(C)C)C(=O)/C=C/C=C/c1ccc2c(c1)OCO2 — Hill coefficient of GABA curve (Gabra3/Gabrb2 (Rattus norvegicus, UniProt P20236+P63138); two-electrode voltage clamp; Xenopus oocytes; 100 µM): 1.1 ± 0.1
CCCCCCCC(=O)Oc1ccc2c(c1)C(C)(C)C1=C(Cl)C(=O)C(Cl)=CC1=N2 — Vmax (NOTUM (Homo sapiens, UniProt Q6P988); substrate): 1.13 µmol/min/mg

For quick reference, copied from above:
O=C(Cn1c2ccccc2c2ccncc21)N(c1ccc(F)cc1)c1ccc(F)cc1 — EC200 (Proteasome subunit alpha type-2/Proteasome subunit alpha type-6 20S proteasome; proteolysis, activator, fluorogenic peptide; purified 20S proteasome; added: Suc-LLVY-AMC, Z-LLE-AMC, Boc-LRR-AMC): 2 ± 0.9 µM
CCc1cc(C)n2nc(-c3ccc(OCC[18F])cc3)c(CC(=O)N(CC)CC)c2n1 — k3 rate constant (Tspo (Rattus norvegicus, UniProt P16257); two-tissue compartment model; rat C6 glioma model, tumor; 60 min dynamic PET): 0.232 ± 0.026 min⁻¹
C=CC(C)(C)OC[C@H]1O[C@H](O[C@@H]2C3=C([C@H](C)COC(C)=O)C[C@H](O)[C@]3(C)/C=C3/[C@@H](COC)CC[C@H]3[C@@H](C)[C@H]2O)[C@H](O)[C@@H](OC(C)=O)[C@@H]1O — threshold concentration (14-3-3 protein gamma, with p65 peptide (YWHAG, Homo sapiens, UniProt P61981); ternary complex formation, 2D fluorescence anisotropy titration): 10 µM
CC(C)C[C@H](NC(=O)[C@H](CCCNC(=N)N)NC(=O)[C@@H](N)CS)C(=O)N[C@@H](CC(N)=O)C(=O)O — remaining activity (PPO3; enzyme activity, inhibitor; 12.5 µM): 88.6%
CC(C)n1c(-c2ccc(C(=N)N)s2)nc2cc(-c3ccc4c(c3)nc(-c3ccc(C(=N)N)s3)n4C(C)C)ccc21 — Kd (T2, dsDNA, hairpin; SPR; pH 7.4, Na+ 100 mM): 0.553 µM
